Experimental data pooled from the literature.
A part holds a random share of what one study measured.

Set 1
Target: Sal-like protein 4, full length isoform B (SALL4, Homo sapiens, UniProt Q9UJQ4-2, residues 1-616)
Method: universal PBM
Form: double-stranded DNA, one strand shown
Matrix: in vitro
Concentration: not given
Notes: 8-mer, flanks averaged, mean of replicates
Reading: higher = stronger binding
Residues (chain): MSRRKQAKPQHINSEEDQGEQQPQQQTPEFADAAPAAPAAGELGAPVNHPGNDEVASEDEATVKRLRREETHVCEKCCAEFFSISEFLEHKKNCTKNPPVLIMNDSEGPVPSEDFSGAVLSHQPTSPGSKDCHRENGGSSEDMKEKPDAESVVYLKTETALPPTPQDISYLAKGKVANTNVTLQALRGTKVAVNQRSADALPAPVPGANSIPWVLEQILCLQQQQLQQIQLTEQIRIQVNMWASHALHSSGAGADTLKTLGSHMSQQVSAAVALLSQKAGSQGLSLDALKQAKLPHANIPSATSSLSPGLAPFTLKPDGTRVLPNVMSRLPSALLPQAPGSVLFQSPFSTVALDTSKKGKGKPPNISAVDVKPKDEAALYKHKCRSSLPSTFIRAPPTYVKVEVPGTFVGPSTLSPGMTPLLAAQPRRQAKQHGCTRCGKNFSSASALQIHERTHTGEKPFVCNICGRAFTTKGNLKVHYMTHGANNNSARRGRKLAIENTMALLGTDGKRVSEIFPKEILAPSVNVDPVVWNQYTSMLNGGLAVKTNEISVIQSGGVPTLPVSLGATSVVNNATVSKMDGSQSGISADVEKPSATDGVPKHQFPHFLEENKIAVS
Oligonucleotide	E-score
AACCGGGG	-0.42
GTCAGTAA	0.0877
CATGCGAG	-0.0898
ATTCTGAA	0.134
GGCCCACC	-0.387
CTAGTGCA	0.156
CTACTCCC	-0.0759
ACCAGCAC	-0.0431
CGATCGTC	-0.204
GCTGACGA	-0.0773
CTCATGTA	0.222
TGCCACCA	-0.161
CGGATCGA	-0.274
CACTGGGG	-0.292
GAGGTGGC	-0.137
AGGTAACT	0.0006
GCCACCCA	-0.299
AATCCCCA	-0.168
CGAGGCGA	-0.167
CTTGTTCC	0.0358
GAAGACCA	-0.207
CCTCTGAG	-0.189
AGATTGTG	0.0249

Set 2
Target: Interferon regulatory factor 7, full length, phosphomimetic (IRF7, Homo sapiens, UniProt Q92985, residues 1-503, S471D/S472D/S475D/S476D/S477D/S483D/S484D/S487D)
Method: protein-binding microarray
Form: double-stranded DNA, one strand shown
Matrix: in vitro
Concentration: 2200 nM top
Notes: 60-bp whole probe
Together with: salmon DNA 0.4 mg/ml
Relative to: random background probes
Reading: higher = stronger binding
Shared flanks, not repeated: GCCTAGCAC … GTCTTGATTCGCTTGACGCTGCTG
Construct (chain): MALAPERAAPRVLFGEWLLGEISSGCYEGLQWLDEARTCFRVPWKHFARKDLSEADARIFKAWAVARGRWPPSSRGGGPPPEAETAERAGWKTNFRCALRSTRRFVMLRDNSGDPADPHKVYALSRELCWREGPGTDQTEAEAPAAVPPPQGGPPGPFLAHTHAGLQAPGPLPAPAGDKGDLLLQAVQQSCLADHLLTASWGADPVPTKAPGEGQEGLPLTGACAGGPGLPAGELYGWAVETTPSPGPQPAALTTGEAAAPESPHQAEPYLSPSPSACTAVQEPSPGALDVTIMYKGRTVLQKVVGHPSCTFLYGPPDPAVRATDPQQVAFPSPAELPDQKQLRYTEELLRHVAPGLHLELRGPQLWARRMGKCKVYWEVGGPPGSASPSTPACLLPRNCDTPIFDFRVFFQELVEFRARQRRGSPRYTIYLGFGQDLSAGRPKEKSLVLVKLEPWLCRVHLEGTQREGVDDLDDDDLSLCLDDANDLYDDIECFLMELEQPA
Oligonucleotide	fitted relative affinity [z-score]
GACGGACTGCTACTGCCGACGTGCTAG	-0.329
TTAGGACTGCTTCTCCCTTAGTGCTAG	0.827
TTAGCTTTCAGTTCCGATTAGTGCTAG	3.48
GAATCTCCCATTATATTTTAGTGCTAG	1.32
ATTGCTTCCTCTTTCACTGGGTGCTAG	2.54
TTAGGTCTCAGTTTCGATTAGTGCTAG	5.65
TTACGTATCGGGACTGGGTTAGTGCTA	1.23
TTAAGACTGGGTCTCGGTTAGTGCTAG	-0.0594
TAGATCGTCCCTTTGAGAGGGTGCTAG	-0.044
CGCTTTTTTTTTTTTTTTTTGTGCTAG	1.74
GACGGTTTAGACTTTCGGGACGTGCTA	2.75
GTAAGTTTCACTTTCCAAAGGTGCTAG	8.32
GAGGGTATCGGTCTCGGGACGTGCTAG	-0.522
TCATTTTTCTAGTCCAGACTGTGCTAG	2.28
GATGATCTCAGACTGGAGACGTGCTAG	-0.00231
TTAGGCTCCGGTTTCGGTTAGTGCTAG	6.14
GACAGTCTCCTTTTCCTGACGTGCTAG	1.8
TTAGGTATCCACTTTCGGTTAGTGCTA	8.72
GACGACATCGGGACTGGAGACGTGCTA	-0.382

Set 3
Target: RNA binding protein fox-1 homolog 2, RRM domain, GST-SBP tag (RBFOX2, Homo sapiens, UniProt O43251-10, residues 100-194)
Method: RNA Bind-n-Seq
Form: RNA
Matrix: in vitro
Concentration: 365 nM
Notes: natural RNA segment, single round, ends assumed
Relative to: no-protein control
Reading: higher = stronger binding
Shared flanks, not repeated: GGGAGUUCUACAGUCCGACGAUC … UGGAAUUCUCGGGUGCCAA
Residues (chain): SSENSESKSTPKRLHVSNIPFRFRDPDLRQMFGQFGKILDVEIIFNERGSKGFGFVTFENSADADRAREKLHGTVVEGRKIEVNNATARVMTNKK
Oligonucleotide	RBNS enrichment (R)
UCUGGGCCUCCCCACCUUUCCUGGGGUCUCCACAUUCCCACUAGUGGGUCUUAUGUGUGUCUGUGUCUUCUCCUUAAACACUCGCCCUGGAGUCUGUUCUCACACCUGUG	0.227
CAGUCUUAGUUGCAUUUGUUGUUUAUUUGUUGGGCUCACCCAACUCUUGACACCAUAGCAGAGCAUCUCCGCAAGGUCCAUCCUCCGGAAUGAGGCUGUUGGGGUGUCCU	0.277
CCAUGAUUUUCCUUCAUGAUGUACCAUGUUUAACUUUCAUGUAUUAUUCUGCAAACUUGGUAGGCUGUUGGAUGUUAUAUUGCCCAUGUGCUUUACAGUGGGCAAUGUGA	0.482
AGUGUUUAGGUGUUUGGUCUUGCUUCUUGUAUGGCAUUUUUCAAUAAACUUUAAAAAAAAAAAAAAAGCCUGACUGUGAGGAUUGAUCCACUUUUAAAGUUCUCUUCUAA	0.59
AUGGAGAUUCCUAAGAUUGGUGGAGUUGGGCAAUGCAUAGCCAUCUGACUCCUUCAGGGUGCUCUUGAUGGGCUGGCUGUAAGGGAGACUCAGUCCCAGCCUCUCCCCUC	0.238
GGGACUUCAUCACUGAGUACUGUGACAGUAUGUGUCAUCUCUGGGCCAAAGGACAAGCCAUUGAUCCCAAAGCCUCGUAUGCCCACCAGGGCCCCUGGUGCCACUGCGUA	0.457
UGUAAAGUUAUUCUUGAAGUCAGAUUGAGGCUGGGAGACAGCCGUAGUAGAUGUUCUACUUUGUUCUGCUGUUCUCUAGAAAGAAUAUUUGGUUUUCCUGUAUAGGAAUG	0.317
AAUUUUUUUCAUAUGUAUUCUGUGCCAUACUAUUGUUAAAAUGAACUGUUGCUAUUGUGAGAUGGAUUUUAACUGACCUAUUAAGGGUUUCUUUCGAAUGGCACUACUUU	0.629

Set 4
Target: Histone acetyltransferase KAT6A, both winged helices, GST fusion (KAT6A, Homo sapiens, UniProt Q92794, residues 1-181)
Method: protein binding microarray
Form: double-stranded DNA, one strand shown
Matrix: in vitro
Concentration: not given
Notes: 8-mer, flanks averaged, mean of 2 arrays, mostly near background
Relative to: not given
Reading: higher = stronger binding
Residues (chain): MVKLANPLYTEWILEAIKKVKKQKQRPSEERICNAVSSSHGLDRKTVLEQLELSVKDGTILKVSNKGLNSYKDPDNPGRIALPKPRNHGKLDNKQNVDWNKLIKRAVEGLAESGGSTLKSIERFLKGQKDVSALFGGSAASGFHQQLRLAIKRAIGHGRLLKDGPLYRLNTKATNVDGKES
Oligonucleotide	E-score
CTAAGTCC	-0.168
AAGTGCGC	0.237
TCTTGTCA	-0.00819
ATAAGGTC	-0.153
CCGAGTCA	-0.0523
TACATATA	-0.0442
CCCCAGGC	-0.191
ACGATCAA	-0.02
CTTCTGTC	-0.00308
CAAGTCGA	-0.148
AGAGGAAT	-0.212
CGGCTAGA	0.157
ATCGCAGC	0.0774
GTGTACAC	0.0361
GATGCTCA	-0.0285
GCCCATAA	0.134
GCTGCTGA	-0.0679
CGGGGTGA	-0.00942
ATCACATC	-0.0891
AACCTGAG	-0.113
CACTGTTC	-0.165
CAATATGA	-0.043
AAGGGAAG	-0.146
CCCGACAA	0.116
CCGCACTA	0.103

Excerpt of the above (set 3):
Oligonucleotide	RBNS enrichment (R)
GGGACUUCAUCACUGAGUACUGUGACAGUAUGUGUCAUCUCUGGGCCAAAGGACAAGCCAUUGAUCCCAAAGCCUCGUAUGCCCACCAGGGCCCCUGGUGCCACUGCGUA	0.457
AGUGUUUAGGUGUUUGGUCUUGCUUCUUGUAUGGCAUUUUUCAAUAAACUUUAAAAAAAAAAAAAAAGCCUGACUGUGAGGAUUGAUCCACUUUUAAAGUUCUCUUCUAA	0.59
AAUUUUUUUCAUAUGUAUUCUGUGCCAUACUAUUGUUAAAAUGAACUGUUGCUAUUGUGAGAUGGAUUUUAACUGACCUAUUAAGGGUUUCUUUCGAAUGGCACUACUUU	0.629
UCUGGGCCUCCCCACCUUUCCUGGGGUCUCCACAUUCCCACUAGUGGGUCUUAUGUGUGUCUGUGUCUUCUCCUUAAACACUCGCCCUGGAGUCUGUUCUCACACCUGUG	0.227
CCAUGAUUUUCCUUCAUGAUGUACCAUGUUUAACUUUCAUGUAUUAUUCUGCAAACUUGGUAGGCUGUUGGAUGUUAUAUUGCCCAUGUGCUUUACAGUGGGCAAUGUGA	0.482
CAGUCUUAGUUGCAUUUGUUGUUUAUUUGUUGGGCUCACCCAACUCUUGACACCAUAGCAGAGCAUCUCCGCAAGGUCCAUCCUCCGGAAUGAGGCUGUUGGGGUGUCCU	0.277
UGUAAAGUUAUUCUUGAAGUCAGAUUGAGGCUGGGAGACAGCCGUAGUAGAUGUUCUACUUUGUUCUGCUGUUCUCUAGAAAGAAUAUUUGGUUUUCCUGUAUAGGAAUG	0.317
AUGGAGAUUCCUAAGAUUGGUGGAGUUGGGCAAUGCAUAGCCAUCUGACUCCUUCAGGGUGCUCUUGAUGGGCUGGCUGUAAGGGAGACUCAGUCCCAGCCUCUCCCCUC	0.238
